Published values collected from several papers.
Each numbered part is a random draw from the data of one study; scales do not carry over between parts. Substitutions count along the parent as printed.

Block 1 — method: RNA Bind-n-Seq; molecule type: RNA; medium: in vitro; tested at: 200 nM; setting: whole 134-nt RNA, ends assumed; with: 150 mM LiCl; relative to: input library; direction: higher = stronger binding; all molecules: 7-deaza-guanosine replaces G
Target: Fragile X messenger ribonucleoprotein 1, C-terminal low-complexity region (Fmr1, Mus musculus, UniProt P35922)
Sequence | log2 enrichment
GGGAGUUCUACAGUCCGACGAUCCAAGUCCUGUGCUACACAUCGUAUGUACCGAAUCGGGGUUUGGUUUGGGGUUUGGGAAAGUAUUAUGUUACGCCGUUCGGAUCUGCACUUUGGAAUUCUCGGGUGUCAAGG | -2.16
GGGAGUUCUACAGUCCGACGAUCGUCCUGUGCUACACAUCGUAUGUACCGAAUCAAAUUUUUUUAAACCCCCAAAUUUAAAAAAGUAUUAUGUUACGCCGUUCGGAUCUGCACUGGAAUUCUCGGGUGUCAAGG | -1.65
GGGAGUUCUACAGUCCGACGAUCCUCAAGUCCUGUGCUACACAUCGUAUGUACCGAAUCGGAGGAAAAAAAGGUGGAAAGUAUUAUGUUACGCCGUUCGGAUCUGCACUUCCAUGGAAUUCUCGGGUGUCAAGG | -1.82
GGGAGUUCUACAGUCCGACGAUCCCUCAAGUCCUGUGCUACACAUCGUAUGUACCGAAUCGGAAAGGUUUGGAGGAAAGUAUUAUGUUACGCCGUUCGGAUCUGCACUUCCAGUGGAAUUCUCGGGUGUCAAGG | -0.548
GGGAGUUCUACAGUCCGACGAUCCAAGUCCUGUGCUACACAUCGUAUGUACCGAAUCGGGAGGGAAAAAGGGAAAGGGAAAGUAUUAUGUUACGCCGUUCGGAUCUGCACUUCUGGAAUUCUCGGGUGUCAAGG | -0.226
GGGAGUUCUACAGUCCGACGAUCCAAGUCCUGUGCUACACAUCGUAUGUACCGAAUCGGGGAAAGGAAAGGGGAAAGGAAAGUAUUAUGUUACGCCGUUCGGAUCUGCACUUCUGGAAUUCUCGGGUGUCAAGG | -0.432
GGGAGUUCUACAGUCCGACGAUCCCUGUGCUACACAUCGUAUGUACCGAAUCGGGGUGGGGUUUUUUUGGGGUUUUUUUGGGGAAAGUAUUAUGUUACGCCGUUCGGAUCUGCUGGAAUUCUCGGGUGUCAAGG | -0.331
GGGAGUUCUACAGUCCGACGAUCUCAGCAACCACCUCAACUCAUUGACUCCGCCAACAUCCGUCAGGAGGAUGCCUUUGAUAACAACAGUGACAUUGCUGAAGAUGGUGGCCAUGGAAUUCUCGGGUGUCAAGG | -0.607
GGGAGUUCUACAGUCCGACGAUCCACAGAGAACACGCACCCACACAGACACAGAGGGAAGGGGUUGGGAUGGGGACAGGGUGCACAGCAGGGCGGGGUAGGACCCCAGCCCCUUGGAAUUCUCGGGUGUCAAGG | 0.973
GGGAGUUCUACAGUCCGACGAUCCCUCAAGUCCUGUGCUACACAUCGUAUGUACCGAAUCGGAGGUUUGGAAAGGAAAGUAUUAUGUUACGCCGUUCGGAUCUGCACUUCCAGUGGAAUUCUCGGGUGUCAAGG | -0.735
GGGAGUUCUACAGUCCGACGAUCCUGUGCUACACAUCGUAUGUACCGAAUCGGGGCCCCCCGGGGCCCCCCGGGGCCCCCCGGGGAAAGUAUUAUGUUACGCCGUUCGGAUCUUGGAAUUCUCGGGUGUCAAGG | -3.04

Block 2 — method: universal PBM; molecule type: double-stranded DNA, one strand shown; medium: in vitro; tested at: 600 nM; direction: higher = stronger binding
Target: Sal-like protein 4, full length isoform A (SALL4, Homo sapiens, UniProt Q9UJQ4, residues 1-1053)
Sequence of UniProt Q9UJQ4 (whole entry, looked up): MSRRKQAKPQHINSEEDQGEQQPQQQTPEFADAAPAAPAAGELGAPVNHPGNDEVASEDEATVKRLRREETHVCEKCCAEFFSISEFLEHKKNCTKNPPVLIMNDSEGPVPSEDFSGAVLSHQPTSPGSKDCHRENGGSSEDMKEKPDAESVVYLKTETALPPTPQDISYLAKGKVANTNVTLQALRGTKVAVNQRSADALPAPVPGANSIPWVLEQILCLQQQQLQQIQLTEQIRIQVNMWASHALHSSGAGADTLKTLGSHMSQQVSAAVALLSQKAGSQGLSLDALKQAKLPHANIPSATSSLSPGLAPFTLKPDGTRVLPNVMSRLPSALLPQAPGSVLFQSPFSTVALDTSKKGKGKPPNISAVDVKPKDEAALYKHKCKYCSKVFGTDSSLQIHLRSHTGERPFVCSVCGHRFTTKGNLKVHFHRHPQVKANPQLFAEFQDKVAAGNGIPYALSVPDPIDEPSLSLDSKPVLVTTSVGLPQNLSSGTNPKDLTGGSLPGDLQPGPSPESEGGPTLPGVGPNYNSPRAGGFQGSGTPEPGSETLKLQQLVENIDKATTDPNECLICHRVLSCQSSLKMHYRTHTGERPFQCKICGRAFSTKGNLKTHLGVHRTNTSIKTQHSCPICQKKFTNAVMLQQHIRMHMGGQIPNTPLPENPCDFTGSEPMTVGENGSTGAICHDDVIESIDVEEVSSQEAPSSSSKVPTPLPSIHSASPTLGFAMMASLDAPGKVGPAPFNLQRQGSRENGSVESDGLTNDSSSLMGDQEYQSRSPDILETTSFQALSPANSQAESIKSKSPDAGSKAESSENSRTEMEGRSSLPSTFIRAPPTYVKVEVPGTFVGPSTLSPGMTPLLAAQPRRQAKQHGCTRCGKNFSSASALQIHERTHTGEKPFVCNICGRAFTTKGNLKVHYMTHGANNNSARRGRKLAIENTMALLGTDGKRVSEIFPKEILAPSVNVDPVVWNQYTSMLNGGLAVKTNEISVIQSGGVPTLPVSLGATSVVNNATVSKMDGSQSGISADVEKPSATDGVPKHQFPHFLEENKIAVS
Setting: 8-mer, flanks averaged, mean of replicates
Sequence | E-score
TAGAGAGA | 0.00634
TCTGGAAA | 0.176
GATACACC | 0.081
AAGACTTG | 0.137
GGAATTCC | -0.106
AATGATTA | 0.36
AGGCTGAT | -0.0334
ACATAGAA | 0.179
CCGTAGCC | -0.332
CAACGCGC | -0.132
ACCCGCAG | -0.0858
GCCCGGCA | -0.41
GACAGCAC | -0.136
GCGGTGTA | -0.0772
GTGCGGTA | -0.187
ATCCTTGC | -0.0367
AGTAGTTA | 0.18
ACGTCTGC | -0.199
AAGGAGAT | 0.0914
ATGGTTAG | 0.0171
ACGCGTTG | -0.0482
TGATAAAA | 0.315
TGTTAGAA | 0.203
AATAGGCC | 0.0163
ATGTGGAA | 0.195

Block 3 — method: DHFR PCA, deep sequencing; medium: yeast; with: (+)-ABA 710 µM; relative to: wild-type fitted maximum; direction: higher = stronger binding
Target: ABI1, truncated, D143A, DHFR fusion (Arabidopsis thaliana)
Setting: methotrexate growth selection, single substitutions
Starting sequence: PYL1, truncated, DHFR fusion (Arabidopsis thaliana); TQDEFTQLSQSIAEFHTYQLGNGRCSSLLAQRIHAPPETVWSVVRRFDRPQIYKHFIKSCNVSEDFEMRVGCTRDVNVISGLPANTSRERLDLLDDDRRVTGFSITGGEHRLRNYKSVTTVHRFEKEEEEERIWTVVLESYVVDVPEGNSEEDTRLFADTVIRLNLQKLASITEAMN
Change | relative binding score [%]
L166V | 36.2
K58E | 103
R99M | 112
F124D | 117
V145N | 80.8
R123S | 109
Y53R | 83.2
R155V | 102
G108E | 53
S171M | 96.4
L91N | 28.8
R24I | 97.8
A170E | 88.5
K116P | -12.6
R90C | 95.1

Block 4 — target: CCNB3, cyclin fold, Cln2 fusion (human); method: yeast growth competition, sequencing; medium: yeast; setting: strong parent motif; relative to: not given; direction: higher = stronger binding
Starting sequence: BRCA2 docking peptide (human); PSIKRNLLNEFDR; partner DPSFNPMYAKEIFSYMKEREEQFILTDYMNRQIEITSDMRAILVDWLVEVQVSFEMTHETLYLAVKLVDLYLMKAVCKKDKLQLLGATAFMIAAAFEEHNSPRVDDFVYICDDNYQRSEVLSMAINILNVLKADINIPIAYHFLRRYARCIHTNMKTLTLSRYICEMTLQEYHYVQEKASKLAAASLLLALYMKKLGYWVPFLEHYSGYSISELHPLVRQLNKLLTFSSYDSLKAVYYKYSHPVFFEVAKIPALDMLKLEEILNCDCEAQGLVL
Change | normalised enrichment score
L8E | 0.385
L8Q | 0.433
F11A | 0.163
S2W | 0.855
L7Q | -0.124
R5P | 0.308
R5A L7A | 0.0547
E10L | 0.311
D12K | 0.386
N6D | 0.3
N9I | 1.91
E10M | 0.0257
P1G | 0.822
N6W | 0.383
D12W | 1.03
L7F | 0.134
D12P | 0.853

Block 5 — method: RNA Bind-n-Seq; molecule type: RNA; medium: in vitro; tested at: 365 nM; relative to: no-protein control; direction: higher = stronger binding
Target: RNA binding protein fox-1 homolog 2, RRM domain, GST-SBP tag (RBFOX2, Homo sapiens, UniProt O43251-10, residues 100-194)
Setting: natural RNA segment, single round, ends assumed
Residues (chain): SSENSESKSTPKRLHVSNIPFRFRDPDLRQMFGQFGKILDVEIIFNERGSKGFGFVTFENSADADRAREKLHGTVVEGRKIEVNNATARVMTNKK
Sequence | RBNS enrichment (R)
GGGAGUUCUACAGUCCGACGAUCAUUUUGUCGCUGUUCUUUGUCCUUUAUUCUUUGUUUACUCUCUCGAAAAUAAAAGGGCUAAACUAUUAAUUAGAUAAUCAUUUCUUAGUGACUAAUACAGCGCUGAUCUGUGGAAUUCUCGGGUGCCAA | 0.384
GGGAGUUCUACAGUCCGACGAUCAGUGUUCCAGUGACCAAGCCAGUCAUUCGGACACUGAUUUGCAGUGCAUUGGCAGUAAUUCACAAAUUAGUUGUUAUAUAAGUCUCUCUCAUCCCUUUCACACUAGAUUCUGGAAUUCUCGGGUGCCAA | 0.373
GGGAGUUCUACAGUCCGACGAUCGCCACAUGCUUGCUGAAGAGACUUGUUUUCUUCUUCUAAGACAGUGGUUUUGUUUUUUGGGUUUUUUAAAAAAAAAAAAAAAACACACACAAAAAACACUUUUUCUAUUGUGGAAUUCUCGGGUGCCAA | 0.408
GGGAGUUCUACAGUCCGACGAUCCUUCUAGGGUAAAAACAGCUAUUACUAAUCUCUGCACUGGUCAUUUGAGAAUUUUUUUUGUACAGCAUUCAUGUGUGAUAUUUUCCAGAUUUGUUGGAUCUAUUUGGUUUUGGAAUUCUCGGGUGCCAA | 0.798
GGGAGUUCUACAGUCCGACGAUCGUGUCUCUAGAUCCAGGCCUUCAAUGUGACUGGUGAACAGUUCUCCUAUGCUAGCGACUGUGCUGGUUUCUUCUCUCCGGGCAUCUGGAUGGGUCUGCUCACCACCCUCUUGGAAUUCUCGGGUGCCAA | 0.664
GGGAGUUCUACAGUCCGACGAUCAACCAAAUUUGAAUACUGCAAAUUUGUAGGAGUUACUAGGUUAGCAAUUAGUCCAUACAUCCAUAAGCCUGAUGAGUUGAAAUUGCAGUUUGAGAAGUGAAUUAACCUUAUGGAAUUCUCGGGUGCCAA | 0.96
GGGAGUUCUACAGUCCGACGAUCUGAACCCUGUAUUGCUGGGGCCGGAAGGAGCCCCUGAGCCUAGCCCCUUCCCGUCUGCCCUGUGUCCUCACUGCGUGUGGGUAUGACCUCUGCCUGGUGGCUGGUGUAUCUGGAAUUCUCGGGUGCCAA | 1.29
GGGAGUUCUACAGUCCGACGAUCGCGGUGACUUUCUUUUUUUGUAAAGCAAAUUACUUAAGAAAAUACAAUUCACUUGAAUUUGACAAACUGAAACAGAUGGGUUUUCUGGGUUCUCUGAUAACCUAUGGGAAUGGAAUUCUCGGGUGCCAA | 0.304
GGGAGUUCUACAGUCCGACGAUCUUUGGGUUUAAUGUUAUAGAAAUAAAUGAUGAUAAACUCUAACUAAUAAAGGAAAGAGAAUAUUUGGUUACUCAGAUCCAUUUUUAACCUCUGGUGCUGUAUAAAGGGAAUGGAAUUCUCGGGUGCCAA | 0.445
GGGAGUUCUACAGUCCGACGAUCGCAUUUGAGUACCUACUGUGAGCAGGCAUUGGGGCGGAGCAGCGAGAGCCCUGCCGAUGUUGGGUUCUCCUCCUAUUGGGGAAACUUGAUCACAGAUGGAACACGUGCAGUGGAAUUCUCGGGUGCCAA | 0.683
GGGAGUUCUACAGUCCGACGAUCGUCCCUACGCAAUAGCAGCUGCCUGUGGGGAAGAAGGGCUGCCCAGCCAGCUGGUUCUCCCGGGACACCAGCAGAUCCACACCCUGGGCACCUCCGUGUUUGGUCUUUUUUGGAAUUCUCGGGUGCCAA | 0.339
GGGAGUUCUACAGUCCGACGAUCUGACUGGUCCGCACAACACACCCACUGCUCAGUUUCCUGAGAAGAGAGAUCUCAAGACAUUUUAAUAACAGCUUGAGCCCUCUUCUCCUCUGUAGGAACUUAGGUUAAUAUGGAAUUCUCGGGUGCCAA | 0.403

Further values, each from its own experiment
Substance | target | test | test system | setting | how to read | endpoint | value
PhoQ, residues 284 288 289 292 302 303 SIHLQL | PhoP, residues 12 14 15 18 19 LHSVQ (Escherichia coli, UniProt P23836) | Sort-seq, item: YFP reporter | E. coli | PhoQ-PhoP variant library, with: 10 µM Mg2+ | relative to: high Mg2+ state, higher = stronger signaling | fold induction | 12.6

For quick reference, copied from above (block 3):
Change | relative binding score [%]
R155V | 102
G108E | 53
S171M | 96.4
L91N | 28.8
